Experimental data from different studies.
Protocols differ between the studies behind these lines. “And” joins repeats or separate records; there may be more than shown.
Target: Serine/threonine-protein kinase PLK1 (PLK1, Homo sapiens, UniProt P53350)

| SMILES | test | test system | setting | how to read | measurement | result |
| --- | --- | --- | --- | --- | --- | --- |
| C=CC(=O)N1CCc2ccc(-n3c(=O)ccc4cnc5ccc(-c6cnn(C)c6)cc5c43)cc21 | KINOMEscan | – | 1 µM | reference: DMSO control | remaining binding | 100% |
| COc1c(OCCCN2CCOCC2)ccc2c1N=C(NC(=O)c1cnc(N)nc1)N1CCN=C21 | kinase activity, inhibitor | – | 1 µM | reference: untreated control | remaining activity | 126% |
| Cc1cccc(-c2ccc3nc(NC(=O)C4CCCO4)nn3c2)c1 (stereo not shown) | enzyme activity, Dundee kinase panel | – | 10 µM | – | remaining activity | 90% |
| CNS(=O)(=O)Nc1nccc(Cc2c(C)c3ccc(Oc4ncccc4F)cc3oc2=O)c1F | binding, competition with immobilised ligand | – | 10 µM | – | remaining binding | 100% |
| C=C1CCCCCCCCCC(CO)C1=O (stereo not shown) | cell-free assay, competition with immobilised ligand | – | 10 µM | – | remaining binding | 100% |
| CN1CC[C@@H](COc2cnc(C#N)cc2-c2ccn3nc(NC(=O)C4CC4)cc3c2)C1 | enzyme activity, inhibitor | – | 1 µM | – | inhibition | 11% |
| CN1CCN(Cc2ccc(NC(=O)c3cccc(C#Cc4cnc(N)c5ncccc45)c3)cc2C(F)(F)F)CC1 | cell-free assay, competition with immobilised ligand | – | 50 nM | – | remaining binding | 77% |
| CCN1CCN(Cc2ccc(C(=O)Nc3ccc(C)c(NCc4cnc5[nH]ccc5c4OC)c3)cc2C(F)(F)F)CC1 | binding, competition with immobilised ligand | – | 1 µM | – | remaining binding | 100% |
| O=C=[N][Ru-4]123([n]4c5ccc(O)cc5c5c6c(c7cc(F)c[n+]1c7c54)C(=O)NC6=O)[S+]1CC[S+]2CC[S+]3CC1 (stereo not shown) | enzyme activity | – | 100 nM, human enzyme, with: 10 µM ATP | reference: untreated | remaining activity | 103% |
| O=C(Cc1ccc(OCc2ccccc2)cc1)NC1(C(=O)O)CCN(C(=O)c2ccc(-c3cccc(Cl)c3)cc2)CC1 | enzyme activity, inhibitor | – | 10 µM | – | activity vs control | 91% |
| CN1C[C@@H](c2c[nH]c3cc(Br)ccc23)NC[C@@H]1c1c[nH]c2cc(Br)ccc12 | enzyme activity, inhibitor | – | 10 µM | – | remaining activity | 108% |
| N[C@H]1CC[C@H](Nc2nccc(-c3cccnc3Oc3ccc(NC(=O)NC4CC4)c4ccccc34)n2)CC1 | kinobead competition pulldown | HEK293/HCT116 lysate mixture | 10 µM, 1 h, 4 °C | lower = stronger competition | log2 LFQ intensity | 22 and 21.9 |
| Cc1cccc(O[C@H]2CCC[C@@H](C(C)CNCc3ccncc3)C2)c1 (relative stereo) | enzyme activity, inhibitor | – | 1 µM | – | inhibition | 6% |
| NC(=O)[C@@H](O)C[C@H]1CCc2sc3ncnc(O[C@H]4CC[C@H](N5CCOCC5)CC4)c3c21 | enzyme activity, inhibitor | – | 10 µM | – | inhibition | 0% |
| CCn1cc(C(=O)O)c(=O)c2c(N)c(F)c(NC3CCCCC3)cc21 | kinase activity | – | 0.1 µM, with: ATP at Km | – | inhibition | -8% |
| COc1cc(Nc2nc(C)cc(-c3cnn4nc(OC)ccc34)n2)cc(C(F)(F)F)c1 | inhibitor | – | 1 µM | reference: control | remaining activity | 87% |
| COc1ccc(NC(=O)Nc2ccc3c(c2)C(=O)N(C(C)CO)CC(C)C(CN(C)Cc2ccc4c(c2)OCO4)O3)cc1 (stereo not shown) | kinase activity, KinaseProfiler | – | 0.03 µM, species human | reference: control | remaining activity | 82% |
| c1ccc2c(Nc3cc(C4CCC4)[nH]n3)nc(Nc3ccc4nc[nH]c4c3)nc2c1 | enzyme activity, inhibitor | – | 0.25 µM | – | remaining activity | 65% |
| C=CC(=O)Nc1cccc(-c2cnc3[nH]cc(C(=O)NC(C)(C)C)c3n2)c1 | kinase activity | – | 0.1 µM | – | inhibition | 6% and 3% |
| C=CC(=O)N1Cc2nc(-c3cc(-c4cc(Cl)cnc4Cl)c(F)cc3F)n(-c3ccncn3)c2C1 | cell-free assay, inhibitor | – | 1 µM | – | inhibition | 8.3% |
| Nc1nc(Nc2ccccc2)sc1C(=O)c1ccccc1 | enzyme activity, inhibitor | – | 10 µM | – | remaining activity | 65% |
| CNC(=O)C1CCN(c2cc(C)c(F)cc2NC(=O)c2ccc(-c3cc(O)ccc3C)c(C)c2)CC1 | binding, competition with immobilised ligand | – | 1 µM | – | remaining binding | 88% |
| CC[C@H](C)[C@H](NC(C)=O)C(=O)N[C@@H](CC(=O)O)C(=O)N1CCC[C@H]1C(=O)N1CCC[C@H]1C(=O)N[C@@H](CC(C)C)C(=O)N[C@@H](Cc1c[nH]cn1)C(=O)N[C@@H](CO)C(=O)N[C@H](C(=O)N[C@@H](C)C(N)=O)[C@@H](C)OP(=O)(O)O | polo-box domain binding, isothermal titration calorimetry | – | concentration not given, 25 °C | – | binding stoichiometry | 0.96 |
| CC(=O)N1c2ccc(-c3ccc(CNC(=O)c4cn5cc(-c6cnc(N)nc6)nc(N6CCOCC6)c5n4)cc3)cc2CC[C@@H]1C | KINOMEscan | – | 10 µM | – | remaining binding | 94% |
| Cc1ccc(C)c(-c2ccc3nc(NC(=O)C4CCCCC4)nn3c2)c1 | enzyme activity, Dundee kinase panel | – | 10 µM | – | remaining activity | 78% |

Some of these lines once more:
| SMILES | test | test system | setting | how to read | measurement | result |
| --- | --- | --- | --- | --- | --- | --- |
| Cc1cccc(O[C@H]2CCC[C@@H](C(C)CNCc3ccncc3)C2)c1 (relative stereo) | enzyme activity, inhibitor | – | 1 µM | – | inhibition | 6% |
| N[C@H]1CC[C@H](Nc2nccc(-c3cccnc3Oc3ccc(NC(=O)NC4CC4)c4ccccc34)n2)CC1 | kinobead competition pulldown | HEK293/HCT116 lysate mixture | 10 µM, 1 h, 4 °C | lower = stronger competition | log2 LFQ intensity | 22 and 21.9 |
| NC(=O)[C@@H](O)C[C@H]1CCc2sc3ncnc(O[C@H]4CC[C@H](N5CCOCC5)CC4)c3c21 | enzyme activity, inhibitor | – | 10 µM | – | inhibition | 0% |
| CC(=O)N1c2ccc(-c3ccc(CNC(=O)c4cn5cc(-c6cnc(N)nc6)nc(N6CCOCC6)c5n4)cc3)cc2CC[C@@H]1C | KINOMEscan | – | 10 µM | – | remaining binding | 94% |
